Experimental data of several laboratories.
Values joined by “and” are separate records of one study, mostly repeats; a detail may differ. ± gives the spread as reported.

With `C=CC(=O)Nc1cc(Nc2nccc(-c3c[nH]c4ccccc34)n2)c(OC)cc1N(C)CCN(C)C` the recovery was 94.4% (storage stability; human plasma; 30 d, -80 °C, LQC level).
For `O=C(Nc1cnccc1-c1ccc([18F])cc1)c1ccnc(NC(=O)C2CC2)c1`, the SUV was 0.4 (PET imaging; FVB/NJ mice, both sexes, brain; intravenous, 30 min post-injection, P-gp inhibited, together with: tariquidar 15 mg/kg iv, 2 h before).
For `[11CH3]N1CCC(NC(=O)c2cc(-c3c(O)cc(O)cc3Oc3ccc([N+](=O)[O-])cc3)on2)CC1`, “standardized uptake value” read 12.5 ± 1.6 g/mL (healthy female Wistar rats, kidneys; intravenous, 10 min).
For `COc1ccc2cc3[n+](cc2c1OCCCOC(=O)c1cscn1)CCc1cc2c(cc1-3)OCO2`, “kidney and heart toxicity markers” read “no effect” (item: urea nitrogen, creatinine, CK-MB, cTnT; C57BL/6 mouse; dose not given, 14 weeks).
`Cc1nn(-c2nc3c(F)cc(F)cc3s2)c(O)c1C(c1ccc(C(F)(F)F)cc1)c1c(C)nn(-c2nc3c(F)cc(F)cc3s2)c1O` gave an AUMC(0-last) of 1.43e+06 h²·ng/mL and 1.54e+06 h²·ng/mL and 2.28e+06 h²·ng/mL (ICR mouse, plasma; oral, 50 mg/kg).
For `Cc1cc(-c2ccc(C(=O)[C@@H]3CCCC[C@H]3C(=O)Nc3cnn4c3C(=O)NCC4)cc2)[nH]n1`, “recovery of radioactivity per interval” read 0.1% (human, urine; oral, 200 mg, 48-72 h; reference: dose).
For `CCCCN1C(=O)c2cccc3c(NCCCCN4CCOCC4)ccc(c23)C1=O`, the Stokes shift was 87 nm (DMSO).
`N#C[C@@H]1CC(F)(F)CN1C(=O)CNC(=O)c1ccnc2c(NC(=O)CCOCCOCCOCCOCCOCCOCCNC(=O)C(CCCCNC(=O)CN3CCN(CC(=O)[O-])CCN(CC(=O)[O-])CCN(CC(=O)[O-])CC3)NC(=O)CCCc3ccc(I)cc3)cccc12.[68Ga+3]` (stereo partly drawn) gave a radiochemical stability of 99.32 ± 0.7% (PBS; 30 min, 37 °C, 68Ga-labelled).
With `CC[C@H](C)[C@@H]1NC(=O)[C@H](Cc2ccc(O)cc2)NC(=O)CCCSC[C@@H](C(=O)N(CC(=O)N[C@@H](CC(C)C)C(=O)NCC(N)=O)Cc2ccc(F)cc2)NC(=O)[C@H](CC(N)=O)NC(=O)[C@H](CCC(N)=O)NC1=O` the Cmax was 0.198 ng/mL (healthy human females, plasma; intranasal, 400 µg single dose).
For `COc1ccc2c(c1)CCn1c[n+]3c(c1-2)-c1ccc(OC)cc1CC3`, the Monocytes was 12.5 ± 0.84% (female NSG mice, blood; 6 mg/kg, day 7, 5 days per week).
The serum AST of `CCc1cnc(NC(=O)c2cc(S(=O)(=O)N3CCOCC3)ccc2N(C)C2CCCC2)s1` is reported as 112 IU/L (mouse; 10 mg/kg, 3 doses).
For `CCC1C(COc2nccc3cc(C(N)=O)c(OC)cc23)NC(=O)C1F` (stereo not drawn), the clearance was 70.5 ± 87.5 mL/min/kg (ICR mice, plasma; intravenous, 1 mg/kg).
For `C=CC(=O)Nc1cc(Nc2nccc(-c3cn(C)c4ccccc34)n2)c(OC)cc1N(C)CCNC`, the remaining compound was 44.3% (human, dried blood spots; 270 ng/mL, 30 d, room temperature, high QC level).
`CCCN(C)c1cc(C(F)(F)F)nc(SCCC(=O)NCc2ccco2)n1` — result for plasma urea: “no effect” (Wistar rat, plasma; intraperitoneal, 25 mg/kg, 2 h post-dose; reference: vehicle control).
`COCC1CN(C2CCN(c3cc(OC)c(Nc4ncc(Br)c(Nc5ccc6c(c5P(C)(C)=O)OCCO6)n4)cc3C)CC2)C1` gave an AUC(0-t) of 13400 ng·h/mL (EGFR-mutant NSCLC patients, plasma; oral, 90 mg single dose, geometric mean).
`CNc1cc(N)c(C(N)=O)cn1` has a plasma concentration of 24.7 µM (Han Wistar rats, male, plasma; oral, 30 mg/kg, 0.50 h).
For `CCCCN1C(=O)c2cccc3c(NCCCCCN4CCOCC4)ccc(c23)C1=O`, “fluorescence quantum yield” read 1 (toluene).
With `COc1cccc(OC)c1-c1cc(C(=O)NC2(C(=O)O)C3CC4CC(C3)CC2C4)nn1-c1ccc(C(=O)N(C)CCCN(C)CCCN(C)C(=O)[C@H](CCCCNC(=O)[C@H](CC(C)C)NC(=O)C2OC2C(=O)O)NC(=O)CN2CCN(CC(=O)[O-])CCN(CC(=O)[O-])CCN(CC(=O)[O-])CC2)cc1C(C)C.[177Lu+3]` (mixture of isomers) the tumour-to-stomach ratio was 12.7 (mouse HT-29 xenograft; 4 h, biodistribution; reference: tumour over stomach).
For `CCCCN1C(=O)c2cccc3c(NCCCN4CCOCC4)ccc(c23)C1=O`, the Stokes shift was 86 nm (acetonitrile).
`CC(=O)N[C@@H](CCCCN)C(=O)N1CCC[C@H]1C(=O)N[C@H](C(=O)N[C@@H](Cc1ccccc1)C(=O)N[C@@H](CCC(N)=O)C(=O)N[C@@H](Cc1ccccc1)C(=O)N[C@@H](CC(C)C)C(=O)N[C@@H](Cc1ccccc1)C(=O)N[C@@H](Cc1c[nH]cn1)C(=O)N[C@@H](CCC(=O)O)C(N)=O)C(C)C` has a nanofiber diameter of 6.1 ± 0.4 nm (AFM; hydrogel; pH 5.5).
For `Cc1n[nH]c(C)c1CCCOc1cc(C(=O)NCCCCC(NC(=O)CN2CCN(CC(=O)[O-])CCN(CC(=O)[O-])CCN(CC(=O)[O-])CC2)C(=O)NCC2CCC(C(=O)NC(Cc3ccc4ccccc4c3)C(=O)NCCCCC(NC(=O)NC(CCC(=O)O)C(=O)O)C(=O)O)CC2)ccc1F.[68Ga+3]` (stereo not drawn), the radiochemical purity was 95.4 ± 0.99% (radio-HPLC; saline; 4 h, pH 7.4, room temperature).
The Stokes shift of `CCCCN1C(=O)c2cccc3c(NCCN4CCOCC4)ccc(c23)C1=O` is reported as 86 nm (ethyl acetate).
`O=C(Nc1cnccc1-c1ccc([18F])nc1)c1ccnc(NC(=O)C2CC2)c1` has an SUV of 0.091 (FVB/NJ mouse, both sexes, brain; intravenous, 15 min).
`CN1C(=O)[C@@H](Cc2ccc(O)c(I)c2)NC(=O)CNC(=O)[C@H](Cc2ccc3ccccc3c2)NC(=O)[C@H](CCCNC(=N)N)NC(=O)[C@H]1CCCNC(=O)c1ccc(CNC(=O)CN2CCN(CC(=O)O)CCN(CC(=O)O)CCN(CC(=O)O)CC2)cc1` [lutetium-177 labelled]: “total absorbed dose” 0.0018 mGy/MBq (1; human, extrapolated from mouse, breasts).
With `O=S(=O)(N[C@H]1CCO[C@@H](C2c3ccc(F)cc3CCc3cc(F)ccc32)C1)c1ccc(OC(F)(F)F)cc1` the brain/plasma ratio was 0.42 ± 0.27 (mouse; oral, 30 mg/kg, 2 h).
For `Nc1ncnc2[nH]c(/C=C/c3ccc([N+](=O)[O-])cc3)nc12`, the purity was 100% (HPLC; solution; after 1 h light exposure).
`O=C([O-])CN1CCN(CC(=O)[O-])CCN(C(CO)C(O)CO)CCN(CC(=O)[O-])CC1.[Dy+3]` (stereo not drawn) — result for “lanthanide tissue concentration”: 0.034 ± 0.015 nmol/g (cynomolgus monkey, skin; dose not given, day 58, PK group).
`N#C[C@@H]1CC(F)(F)CN1C(=O)CNC(=O)c1ccnc2c(NC(=O)C(N)CCCCNC(=O)CCOCCOCCOCCOCCOCCOCCNC(=O)CN3CCN(CC(=O)[O-])CCN(CC(=O)[O-])CCN(CC(=O)[O-])CC3)cccc12.[68Ga+3]` (stereo partly drawn) has a radiochemical stability of 98.58 ± 0.2% (PBS; 120 min, 37 °C, 68Ga-labelled).
The MRT(0-t) of `COc1cc2c(cc1O)CCN1C[C@@H](CC(C)C)[C@@H](O)C[C@H]21` is reported as 20.3 h (item: non-deuterated analyte; healthy human male, plasma; oral, 25 mg, geometric mean, [14C]-tetrabenazine dosed).
For `[123I]c1ccc2nc(-c3ccc(-n4ccnn4)nc3)cn2c1`, the tracer uptake was 0.4 %ID/g (male Wistar rat, blood; intravenous, 4 MBq, 5 min).
`CCCCN1C(=O)c2cccc3c(NCCCCCCCCN4CCOCC4)ccc(c23)C1=O` has a Stokes shift of 91 nm (DMSO).
For `C/C(N)=N/C(=N\S(=O)(=O)c1ccc(C(F)(F)F)cc1)N1C[C@H](c2ccccc2)C(c2ccc(Cl)cc2)=N1`, the Vd was 2 L/kg (male beagle dog, plasma; intravenous, 2 mg/kg).
For `Cc1ccc(OCC(=O)N(Cc2cccs2)c2ccn[nH]2)cc1`, the remaining compound was 91.7% (Gottingen pig plasma; 750 ng/mL, 24 h, 37 °C).
`C=CC(=O)Nc1cccc(Cn2ncc3cnc(Nc4cnn(CCOC)c4)nc32)c1` has a remaining compound of 43.9% (mouse, CD-1, both sexes, whole blood; 5 µM, 60 min).
The parent fraction of `O=C1c2sc(-c3ccc(N4CCC(CO)CC4)nc3F)nc2CCN1c1cccnc1` is reported as 0.29 (HPLC; rhesus monkey, plasma; intravenous, 30.02 min).
`CC(C)Cc1ccc(C(C)C(=O)NC(CCCCNC(=O)CCOCCOCCOCCOCCOCCOCCNC(=O)CN2CCN(CC(=O)[O-])CCN(CC(=O)[O-])CCN(CC(=O)[O-])CC2)C(=O)Nc2cccc3c(C(=O)NCC(=O)N4CC(F)(F)C[C@H]4C#N)ccnc23)cc1.[68Ga+3]` (stereo partly drawn) gave a radiochemical stability of 98.44 ± 0.7% (human serum; 60 min, 37 °C, 68Ga-labelled).

Repeated from above:
For `C=CC(=O)Nc1cc(Nc2nccc(-c3cn(C)c4ccccc34)n2)c(OC)cc1N(C)CCNC`, the remaining compound was 44.3% (human, dried blood spots; 270 ng/mL, 30 d, room temperature, high QC level).
`CCCN(C)c1cc(C(F)(F)F)nc(SCCC(=O)NCc2ccco2)n1` — result for plasma urea: “no effect” (Wistar rat, plasma; intraperitoneal, 25 mg/kg, 2 h post-dose; reference: vehicle control).
`COCC1CN(C2CCN(c3cc(OC)c(Nc4ncc(Br)c(Nc5ccc6c(c5P(C)(C)=O)OCCO6)n4)cc3C)CC2)C1` gave an AUC(0-t) of 13400 ng·h/mL (EGFR-mutant NSCLC patients, plasma; oral, 90 mg single dose, geometric mean).
`CNc1cc(N)c(C(N)=O)cn1` has a plasma concentration of 24.7 µM (Han Wistar rats, male, plasma; oral, 30 mg/kg, 0.50 h).
